Published values of several laboratories.
Numbers after ± are the reported error.

Compound | cell line | test | test system | setting | scale | quantity | result
Nc1nccnc1C(=O)Nc1nc2ccc(OC(F)(F)F)cc2s1 | Calu-3 | ATP content | – | concentration not given, 48 (unit not given) | – | cytotoxicity | 62.7%
CC(C)=CCc1cc(-c2coc3cc(O)c(CC=C(C)C)c(O)c3c2=O)ccc1O | K562 | cell growth or viability, MTT | – | 25 µg/mL | – | viability | 35.6%
COC(=O)NC(C(=O)NN(Cc1ccc(C=Cc2ccccc2)cc1)CC(O)(Cc1ccccc1)C(=O)NC1c2ccccc2CC1O)C(C)(C)C (stereo not drawn) | 2/4/A1 rat cell monolayer | – | – | pH 7.4, 1% BSA in receiver | – | Papp A-to-B | 32 ± 2.5 ×10⁻⁶ cm/s
CC[C@H](C)[C@H](N)C(=O)N[C@H](C(=O)N[C@H](C(=O)N[C@H](C(=O)N[C@H](C(=O)N[C@@H](Cc1c[nH]cn1)C(=O)N[C@@H](Cc1c[nH]cn1)C(=O)N[C@@H](Cc1c[nH]cn1)C(=O)N[C@@H](Cc1c[nH]cn1)C(=O)N[C@@H](CCCNC(=N)N)C(=O)N[C@@H](CCCNC(=N)N)C(=O)N[C@@H](CCCNC(=N)N)C(=O)N[C@@H](CCCNC(=N)N)C(=O)N[C@@H](CCCNC(=N)N)C(=O)N[C@@H](CCCNC(=N)N)C(=O)N[C@@H](CCCNC(=N)N)C(=O)N[C@@H](CCCNC(=N)N)C(N)=O)[C@@H](C)CC)[C@@H](C)CC)[C@@H](C)CC)[C@@H](C)CC | MCEC | MTT | – | 32 µM, 4 h, peptide complex, N/P 20, read 3 days later | – | viability | ~70%
Cc1ncsc1-c1ccc(CNC(=O)[C@@H]2C[C@@H](O)CN2C(=O)[C@@H](NC(=O)CN2CCN(C3CN(CCNC(=O)C[C@@H]4N=C(c5ccc(Cl)cc5)c5c(sc(C)c5C)-n5c(C)nnc54)C3)CC2)C(C)(C)C)cc1 | Sf9 | – | culture medium | – | – | kinetic solubility | > 200 µM
CCCCn1cc(C(=O)O)c(=O)c2cc(F)c3[nH]nnc3c21 | T47D | cell growth or viability, SRB | – | – | – | IC50 | 41.2 µM
COc1ccc(-c2coc3c(CC=C(C)C)c(O)c(CC=C(C)C)c(O)c3c2=O)cc1O | K562 | cell growth or viability, MTT | – | 50 µg/mL | – | viability | 13.2%
COC(=O)NC(C(=O)NN(Cc1ccc(Br)cc1)CC(O)(Cc1ccccc1)C(=O)NCc1ccccc1)C(C)(C)C (stereo not drawn) | 2/4/A1 rat cell monolayer | – | – | pH 7.4, 1% BSA in receiver | – | Papp A-to-B | 245 ± 15 ×10⁻⁶ cm/s
O=[N+]([O-])c1ccc(/C=N/N=C/c2ccc(Br)cc2)o1 | MDBK | CCK-8 | – | 72 h | – | CC50 | > 310 µM
CCOC(=O)N1CCN(C(=O)[C@H](Cc2cccc(C(=N)N)c2)NS(=O)(=O)c2c(C(C)C)cc(C(C)C)cc2C(C)C)CC1 | Calu-3 | ATP content | – | concentration not given, 48 (unit not given) | – | cytotoxicity | 0%
COC(=O)NC(C(=O)NN(Cc1ccc(Br)cc1)CC(O)(Cc1ccccc1)C(=O)NC1c2ccccc2CC1O)C(C)(C)C (stereo not drawn) | 2/4/A1 rat cell monolayer | – | – | pH 7.4, 1% BSA in receiver | – | Papp A-to-B | 192 ± 18.8 ×10⁻⁶ cm/s
COc1ccc([C@@H]2CC(=O)c3c(O)cc(O[C@@H]4O[C@H](CO[C@@H]5O[C@@H](C)[C@H](O)[C@@H](O)[C@H]5O)[C@@H](O[C@H]5O[C@H](CO)[C@@H](O)[C@H](O)[C@H]5O)[C@H](O)[C@H]4O)cc3O2)cc1O | MRC5 | cell growth or viability, MTS | – | 150 µg/mL, 24 h | – | viability | 35.5%
COc1cc2c(cc1O)[C@]1(O)C(=O)c3c(O)cc4c(c3O[C@@H]1CO2)C=CC(C)(C)O4 | K562 | cell growth or viability, MTT | – | 12.5 µg/mL | – | viability | 34.9%
CC/C=C\C/C=C\C/C=C\C/C=C\C/C=C\C/C=C\CCC(=O)OC(CO)COP(=O)([O-])OCC[N+](C)(C)C (stereo not drawn) | human brain-like endothelial cells | LC-MS | in vitro BBB model | 1 µM, 180 min, pH 7.4 | – | intracellular accumulation | 0.28 ± 0.02%
CCCCn1cc(C(=O)O)c(=O)c2cc(F)c(Nc3ccccc3OC)c([N+](=O)[O-])c21 | T47D | cell growth, SRB | – | 72 h | – | IC50 | 133 ± 2.66 µg/mL
COC(=O)[C@H](CSSC[C@H](NC(=O)[C@H](Cc1ccccc1)NC(=O)[C@H](Cc1ccccc1)NC(=O)OC(C)(C)C)C(=O)OC)NC(=O)[C@H](Cc1ccccc1)NC(=O)[C@H](Cc1ccccc1)NC(=O)OC(C)(C)C | AC-16 | MTT | – | 36 h | – | cytotoxic concentration | 100 µM
C[C@@H]1NC(=O)[C@@H]2CSSC[C@H](NC(=O)[C@H](CC(=O)O)NC(=O)[C@H](CC(=O)O)NC(=O)CNC(=O)[C@H](CC(=O)O)NC(=O)[C@H](Cc3ccc(O)cc3)NC1=O)C(=O)N[C@@H](CCCCN)C(=O)N[C@@H](CO)C(=O)N[C@@H](C)C(=O)NCCc1cccc3c1Oc1c(cccc1-3)CCC(=O)N[C@@H](CO)C(=O)N2 | OVCAR-3 | – | – | concentration not given | – | cytotoxicity | not toxic
COC(=O)CC[C@@H](NC(=O)[C@@H](Cc1ccc(OP(=O)(O)O)cc1)NC(=O)[C@@H](Cc1ccccc1)NC(=O)[C@@H](Cc1ccccc1)NC(=O)Cc1ccc2ccccc2c1)C(=O)OC | SAOS-2 | – | – | 200 µM, 24 h | – | remaining compound | 15.2%
CC/C=C\C/C=C\C/C=C\C/C=C\C/C=C\C/C=C\CCC(=O)OC(CO)COP(=O)(O)OCCN (stereo not drawn) | human brain-like endothelial cells | LC-MS | in vitro BBB model | 1 µM, 180 min, pH 7.4 | – | intracellular accumulation | 2.79 ± 0.55%
CCCCn1cc(C(=O)O)c(=O)c2cc(F)c3c(nnn3-c3ccc(OC)cc3)c21 | T47D | cell growth or viability, SRB | – | – | – | IC50 | 134 µM
CC(C)=CCc1c2c(c(O)c3c(=O)c(-c4ccc(O)cc4)coc13)CC(C(C)(C)O)O2 (stereo not drawn) | K562 | cell growth or viability, MTT | – | 12.5 µg/mL | – | viability | 14.2%
CCCCn1cc(C(=O)O)c(=O)c2cc(F)c(N)c([N+](=O)[O-])c21 | PANC-1 | cell growth, SRB | – | 72 h | – | IC50 | 158 ± 21 µg/mL
COc1cc(/C=C/C=C2\SC(=S)NC2=O)ccc1O | HeLa and HEK293T | – | – | concentration not given | – | cytotoxicity | not toxic
NC[C@H]1O[C@H](O[C@H]2[C@H](OCCCCCCCCCCCCn3cc(CNc4nc(NCc5cn(CCCCCCCCCCCCO[C@@H]6[C@@H](O)[C@H](N)C[C@H](N)[C@H]6O[C@H]6O[C@H](CN)[C@@H](O)C[C@H]6N)nn5)nc(NCc5cn(CCCCCCCCCCCCO[C@@H]6[C@@H](O)[C@H](N)C[C@H](N)[C@H]6O[C@H]6O[C@H](CN)[C@@H](O)C[C@H]6N)nn5)n4)nn3)[C@@H](O)[C@H](N)C[C@@H]2N)[C@H](N)C[C@@H]1O | Hep G2 | PrestoBlue | – | 2 µM, 48 h | reference: untreated | viability | 100%
CC(=O)N[C@H](C(=O)N[C@H](C(=O)N[C@@H](CCCNC(=N)N)C(=O)N1Cc2ccccc2C[C@H]1C(=O)N[C@@H](Cc1ccccc1)C(N)=O)C1CCCCC1)C(C)C | human PBMC | Bio-Plex multiplex, measured: IL-10 | – | 500 µg/mL, 24 h | – | cytokine level | 2 ± 1.7 pg/mL
OC1(C#Cc2c(-c3ccsc3)oc3ccc(N4CCOCC4)cc23)CCCCC1 | Huh-7.5.1 | – | – | – | – | CC50 | 43.6 µM
CCN(c1nc(N)c(C(=O)NC(=N)N)nc1Cl)C(C)C | Calu-3 | ATP content | – | concentration not given, 48 (unit not given) | – | cytotoxicity | 37.1%
CCCCn1cc(C(=O)O)c(=O)c2cc(F)c(Nc3cccc(OC)c3)c([N+](=O)[O-])c21 | T47D | cell growth or viability, SRB | – | – | – | IC50 | 302 µM
C[C@]12CC/C(=N\OCCN3CCOCC3)C=C1CCC1C2CC[C@]2(C)/C(=C/c3ccccn3)CCC12 (stereo partly drawn) | BJ fibroblasts | alamarBlue | – | concentration not given, 72 h | – | cytotoxicity | not toxic
COC(=O)NC(C(=O)NN(Cc1ccc(-c2cc3ccccc3s2)cc1)CC(O)(Cc1ccccc1)C(=O)NC1c2ccccc2CC1O)C(C)(C)C (stereo not drawn) | 2/4/A1 rat cell monolayer | – | – | pH 7.4, 1% BSA in receiver | – | Papp A-to-B | 4.1 ± 1.3 ×10⁻⁶ cm/s

Repeated from above:
Compound | cell line | test | test system | setting | scale | quantity | result
COc1ccc(-c2coc3c(CC=C(C)C)c(O)c(CC=C(C)C)c(O)c3c2=O)cc1O | K562 | cell growth or viability, MTT | – | 50 µg/mL | – | viability | 13.2%
COC(=O)NC(C(=O)NN(Cc1ccc(Br)cc1)CC(O)(Cc1ccccc1)C(=O)NCc1ccccc1)C(C)(C)C (stereo not drawn) | 2/4/A1 rat cell monolayer | – | – | pH 7.4, 1% BSA in receiver | – | Papp A-to-B | 245 ± 15 ×10⁻⁶ cm/s
O=[N+]([O-])c1ccc(/C=N/N=C/c2ccc(Br)cc2)o1 | MDBK | CCK-8 | – | 72 h | – | CC50 | > 310 µM
